Measurements gathered from unrelated publications.
Parts stem from different laboratories: compare values within a part only. ± gives the spread as reported.

Study 1
Organism: SARS-CoV-2 Wuhan spike VSV pseudovirus
Read-out: pseudovirus entry
Tested at: concentration not given
| SMILES | inhibition [%] |
| --- | --- |
| CC(=O)c1cc(CN2CCOC(Cc3ccccc3)C2)cs1 (centres unmarked) | 37 |
| CC1=CC(C)(C)Nc2ccc(OC(=O)COc3ccccc3Cl)cc21 | 40 |
| c1ccc(-c2cc(CN3CCN(c4ncnc5ccccc45)CC3)on2)cc1 | 40 |
| COc1ccc(C2(C(=O)N3CCC(Cc4nc(-c5ccccc5)no4)CC3)CC2)cc1 | 40 |
| Cc1ccc(-n2nnc(C(=O)N3CCN(Cc4ccccc4)CC3)c2-c2cccnc2)cc1 | 38 |
| Cc1cccc(N2CCN(C(=O)c3cc4occc4c(Nc4ccc(F)cc4)n3)CC2)c1C | 40 |
| CCOC(=O)C1CCN(C(=O)COc2cccc(C)c2C)CC1 | 39 |

Other studies, line by line
rep papain-like protease: Replicase polyprotein 1ab, papain-like protease (rep, Severe acute respiratory syndrome coronavirus 2, UniProt P0DTD1)
rep nsp14: Replicase polyprotein 1ab, nsp14 (rep, Severe acute respiratory syndrome coronavirus 2, UniProt P0DTD1)
rep nsp12 RdRp: Replicase polyprotein 1ab, nsp12 RdRp (rep, Severe acute respiratory syndrome coronavirus 2, UniProt P0DTD1)
| Compound | target | test | conditions | scale | measurement | result |
| --- | --- | --- | --- | --- | --- | --- |
| CCC(CC)[C@H](NC(C)=O)[C@@H]1[C@H](O)[C@@H](C(=O)O)C[C@H]1N=C(N)N | neuraminidase (Influenza B virus, UniProt A0A1S5RAG6, N294S) | – | – | – | IC50 | 21.5 ± 3.1 nM |
| O=S(=O)(F)Cc1ccccc1 | rep papain-like protease | – | concentration not given, C111S mutant | reference: positive control | activity | 19.3% |
| C[S+](CC[C@H](N)C(=O)[O-])C[C@H]1O[C@@H](n2cnc3c(N)ncnc32)[C@H](O)[C@@H]1O (some centres unmarked) | rep nsp14 | thermal shift | 500 µM | – | ΔTm | 1.8 °C |
| Cc1nc2n(c(=O)c1CCN1CCC(c3noc4cc(F)ccc34)CC1)CCCC2O (centres unmarked) | rep nsp12 RdRp | binding, biolayer interferometry | 50 µM | – | BLI response | 0.02 nm |
| CC(C)Cc1ccc([C@H](C)C(=O)O)cc1 | rep papain-like protease | – | concentration not given, C111S mutant | reference: positive control | activity | 19.9% |
| O=C(NC1CCN(c2ncnc3[nH]cnc23)CC1)c1cccc(S(=O)(=O)N2CCCC2)c1 | rep nsp14 | NSP14 enzyme activity, inhibitor | 0.1953 µM | – | inhibition | 1.51% |
| c1ccc2c(Oc3nc(Nc4ccc(N5CCOCC5)cc4)c4ncn(C5CCCCC5)c4n3)cccc2c1 | rep nsp12 RdRp | binding, biolayer interferometry | concentration not given | – | BLI response | 0.01 nm |

Repeated from above (study 1):
| SMILES | inhibition [%] |
| --- | --- |
| CC1=CC(C)(C)Nc2ccc(OC(=O)COc3ccccc3Cl)cc21 | 40 |
